# Published values gathered from unrelated publications.
# Each line is one published result; not all experiments were run side by side. ± marks the error that the study gave.
SMILES,test,system,setting,how to read,quantity,value
COCCN(C)CC(=O)NC(Cc1ccc(-c2ccccc2)cc1)B(O)O (stereo not drawn),,Caco-2,,,Papp A→B,18 ×10⁻⁶ cm/s
COc1cccc(OC)c1-c1cc(C(=O)NC2(C(=O)O)C3CC4CC(C3)CC2C4)nn1-c1ccc(C(=O)N(C)CCOCCOCCN(C)C(=O)[C@H](CCCCNC(=O)[C@H](CC(C)C)NC(=O)C2OC2C(=O)O)NC(=O)CN2CCN(CC(=O)[O-])CCN(CC(=O)[O-])CCN(CC(=O)[O-])CC2)cc1C(C)C.[177Lu+3] (mixture of isomers),,"mouse, HT-29 xenograft","24 h post injection, biodistribution",baseline: tumour over lung uptake,tumour-to-lung ratio,3.7
O=C(Nc1cnccc1-c1ccc([18F])cc1)c1ccnc(NC(=O)C2CC2)c1,,"mice, transgenic, GSK-3β, early-stage, small intestine","intravenous, dose not given, 120 min",,SUV,1.04
CCCC[C@H](OC(C)=O)c1ccccc1C(=O)O,,"beagle dog, both sexes, whole blood","intravenous, 1.5 mg/kg, single dose, fitted within 1 h",,half-life,18.6 ± 6 min
[123I]c1ccc2nc(-c3ccc(-n4ccnn4)nc3)cn2c1,,"male Wistar rat, blood","intravenous, 4 MBq, 14 h",,tracer uptake,0.015 %ID/g
CCCCC/C=C\CCCO[Si](CCCCN(CC)CC)(OCCC/C=C\CCCCC)OCCC/C=C\CCCCC,,,"pH 7.5, formulated",,zeta potential,0.14 mV
C=CC[C@@H]1/C=C(\C)C[C@H](C)C[C@H](OC)[C@H]2O[C@@](O)(C(=O)C(=O)N3CCCC[C@H]3C(=O)O[C@H](/C(C)=C/[C@@H]3CC[C@@H](O)[C@H](OC)C3)[C@H](C)[C@@H](O)CC1=O)[C@H](C)C[C@@H]2OC,,"kidney transplant recipients, whole blood","oral, dose not given, late phase, limited sampling",,dose-normalized AUC(0-12h),146 ng·h/mL
Cc1ccc(OCC(=O)N(Cc2cccs2)c2ccn[nH]2)cc1,ex vivo plasma stability,dog plasma,"750 ng/mL, 24 h, 37 °C",,remaining compound,110%
C=C(NC(=O)c1csc(-c2nc3c(cc2O)-c2nc(cs2)C(=O)NC(C(C)O)C(=O)NC(=C(C)OC)c2nc(cs2)C(=O)NC2c4nc(cs4)C(=O)NC(COC(=O)c4c5c6c(cccc6n4O)COC(=O)C(OC4CC(C)(O)C(N(C)C)C(C)O4)C2OC5)c2nc-3cs2)n1)C(N)=O (stereo not drawn),,"Sprague-Dawley rat, plasma","intravenous, 18 mg/kg, single dose, infusion",,Tmax,4.8 min
COCC1CN(C2CCN(c3cc(OC)c(Nc4ncc(Br)c(Nc5ccc6c(c5P(C)(C)=O)OCCO6)n4)cc3C)CC2)C1,first-in-human trial,human,"oral, 150 mg once daily",treatment-related leading to permanent discontinuation,adverse events,16.7%
C=CC(=O)Nc1cc(Nc2nccc(-c3cn(C)c4ccccc34)n2)c(OC)cc1N(C)CCNC,storage stability,human dried blood spot,"2 h, -80 °C, LLOQ level",,recovery,100%
CCn1nc(Cl)c2c1-c1cnc(N)c(c1)O[C@H](C)c1cc(F)ccc1-c1nn(C)cc1C2,,"Balb/c nude mouse, female, plasma","0.2 mg/kg, single dose, 1 h",,free plasma concentration,1.63 nM
